Measured values of several laboratories.
Compare with care: the assays were run in different laboratories. Values joined by “and” are separate records of one study, mostly repeats; a detail may differ. ± gives the spread as reported. ≈ marks a conversion by molar mass, not a printed value.
UniProt P48029, sequence (whole entry, unmodified, looked up): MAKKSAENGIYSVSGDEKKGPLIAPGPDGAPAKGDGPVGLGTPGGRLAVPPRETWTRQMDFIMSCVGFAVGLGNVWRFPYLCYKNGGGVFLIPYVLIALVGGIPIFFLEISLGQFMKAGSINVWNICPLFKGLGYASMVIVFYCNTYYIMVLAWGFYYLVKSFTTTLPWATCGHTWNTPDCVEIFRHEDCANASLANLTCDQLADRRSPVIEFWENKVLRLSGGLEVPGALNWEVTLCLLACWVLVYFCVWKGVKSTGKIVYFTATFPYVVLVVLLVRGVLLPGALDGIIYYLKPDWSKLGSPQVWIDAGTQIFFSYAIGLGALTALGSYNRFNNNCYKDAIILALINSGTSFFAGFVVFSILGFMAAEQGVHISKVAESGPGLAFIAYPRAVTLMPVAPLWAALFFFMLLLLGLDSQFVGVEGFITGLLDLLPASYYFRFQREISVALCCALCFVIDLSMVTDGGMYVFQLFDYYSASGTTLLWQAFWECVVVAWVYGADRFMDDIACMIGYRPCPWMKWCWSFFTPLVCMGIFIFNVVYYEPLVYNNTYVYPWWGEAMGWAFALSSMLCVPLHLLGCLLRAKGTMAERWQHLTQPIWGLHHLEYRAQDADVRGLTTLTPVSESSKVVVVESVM

Structure (SMILES)	target or system	assay	system	setting	measurement	result
O=C1CCN(Cc2ccccc2)CC1C(C[N+](=O)[O-])c1ccccc1 (stereo not shown)		tail immersion test	BALB/c mice	ip, 50 mg/kg, 0.25 h	tail flick response	21.6%
COc1cc(CCC(C)=O)ccc1O	mouse mAb 1-F12	antibody binding, indirect competitive ELISA		added: coating antigen 4-OVA	IC50	0.381 µg/mL (≈ 1.96 µM)
CC(=O)[O-].O.[Cu+2].[O-]c1ccc(Br)cc1C=NCCN1CCOCC1	Candida albicans			20 µL of 100 µM per disc	inhibition zone diameter	14 mm
CNc1cc(C(=O)Nc2ccc(Cl)cc2)ccc1OC	duck hepatitis B virus	viral replication, qPCR	DHBV-infected Pekin ducklings	oral, 100 mg/kg, day 14	serum DHBV DNA	inhibited
O=C1NCC(Cc2ccccc2)N(CC2CCCN2CC(CC2CCCCC2)N2CC(Cc3ccc(O)cc3)N(CCc3ccccc3)C(=O)C2=O)C1=O (stereo not shown)	WM 266-4	western blot, item: DDX1, hnRNP H2, hnRNP A2/B1		concentration not given	protein level	decreased
O=C(CCCCCCNC(=O)c1cnc(N(c2ccccc2)c2ccccc2)nc1)NO	Lucilia cuprina	pupation	LS strain, larvae on impregnated cotton wool	216 h	IC50	> 1000 µg
N=C(N)NCCC[C@@H]1NC(=O)[C@H](CCCCNC(=O)CC[C@H](NC(=O)CC[C@H](NC(=O)CN2CCN(CC(=O)O)CCN(CC(=O)O)CCN(CC(=O)O)CC2)C(=O)N[C@@H](CCC(=O)NCCCC[C@@H]2NC(=O)[C@@H](Cc3ccccc3)NC(=O)[C@H](CC(=O)O)NC(=O)CNC(=O)[C@H](CCCNC(=N)N)NC2=O)C(=O)NCCCC[C@@H]2NC(=O)[C@@H](Cc3ccccc3)NC(=O)[C@H](CC(=O)O)NC(=O)CNC(=O)[C@H](CCCNC(=N)N)NC2=O)C(=O)NCCCC[C@@H]2NC(=O)[C@@H](Cc3ccccc3)NC(=O)[C@H](CC(=O)O)NC(=O)CNC(=O)[C@H](CCCNC(=N)N)NC2=O)NC(=O)[C@@H](Cc2ccccc2)NC(=O)[C@H](CC(=O)O)NC(=O)CNC1=O [indium-111 labelled]			female athymic nu/nu mice, brain	intravenous, 4 h	tissue uptake	0.1 ± 0.02 %ID/g
O=C(CCCCCCCC(=O)NO)NO	Lucilia cuprina	pupation	LS strain, larvae on impregnated cotton wool	216 h	IC50	> 1000 µg
CCCCC/C=C/C(=O)CCc1ccc(O)c(OC)c1	mAb 5-3H1	antibody binding, indirect competitive ELISA		added: coating antigen 3-OVA	IC50	> 4 µg/mL
N=C(N)NCCC[C@@H]1NC(=O)[C@H](CCCCNC(=O)CNC(=O)CNC(=O)CNC(=O)CC[C@H](NC(=O)CNC(=O)CNC(=O)CNC(=O)CN2CCN(CC(=O)O)CCN(CC(=O)O)CCN(CC(=O)O)CC2)C(=O)NCC(=O)NCC(=O)NCC(=O)NCCCC[C@@H]2NC(=O)[C@@H](Cc3ccccc3)NC(=O)[C@H](CC(=O)O)NC(=O)CNC(=O)[C@H](CCCNC(=N)N)NC2=O)NC(=O)[C@@H](Cc2ccccc2)NC(=O)[C@H](CC(=O)O)NC(=O)CNC1=O [indium-111 labelled]			female athymic nu/nu mice, brain	intravenous, 72 h	tissue uptake	0.04 %ID/g
O=C(NO)c1ccc(CC(=O)N(CCO)c2ccccc2)cc1	Lucilia cuprina	pupation	LS strain, larvae on impregnated cotton wool	216 h	IC50	> 1000 µg
[64Cu+2].c1cnc(CNCc2ccc(CN3CCCN4CCNCCCN(CC4)CC3)cc2)nc1	CXCR4		NOD/SCID mouse, U87 and U87-stb-CXCR4 xenografts, muscle	iv, 90 min, ex vivo	tissue uptake	0.4 ± 0.05 %ID/g
COc1ccc(F)cc1CC1(NC(=O)c2cc(N3C[C@@H](C)O[C@H](C)C3)ccn2)CC1	SLC6A8 (Homo sapiens, UniProt P48029, P544L)	creatine transport rescue	U-2 OS P544L knock-in	24 h	EC50	1000 nM and ~1000 nM

Repeated from above:
Structure (SMILES)	target or system	assay	system	setting	measurement	result
CNc1cc(C(=O)Nc2ccc(Cl)cc2)ccc1OC	duck hepatitis B virus	viral replication, qPCR	DHBV-infected Pekin ducklings	oral, 100 mg/kg, day 14	serum DHBV DNA	inhibited
O=C1NCC(Cc2ccccc2)N(CC2CCCN2CC(CC2CCCCC2)N2CC(Cc3ccc(O)cc3)N(CCc3ccccc3)C(=O)C2=O)C1=O (stereo not shown)	WM 266-4	western blot, item: DDX1, hnRNP H2, hnRNP A2/B1		concentration not given	protein level	decreased
